Published values pooled from the literature.
Parts stem from different laboratories: compare values within a part only.
UniProt P35348, sequence (whole entry, looked up): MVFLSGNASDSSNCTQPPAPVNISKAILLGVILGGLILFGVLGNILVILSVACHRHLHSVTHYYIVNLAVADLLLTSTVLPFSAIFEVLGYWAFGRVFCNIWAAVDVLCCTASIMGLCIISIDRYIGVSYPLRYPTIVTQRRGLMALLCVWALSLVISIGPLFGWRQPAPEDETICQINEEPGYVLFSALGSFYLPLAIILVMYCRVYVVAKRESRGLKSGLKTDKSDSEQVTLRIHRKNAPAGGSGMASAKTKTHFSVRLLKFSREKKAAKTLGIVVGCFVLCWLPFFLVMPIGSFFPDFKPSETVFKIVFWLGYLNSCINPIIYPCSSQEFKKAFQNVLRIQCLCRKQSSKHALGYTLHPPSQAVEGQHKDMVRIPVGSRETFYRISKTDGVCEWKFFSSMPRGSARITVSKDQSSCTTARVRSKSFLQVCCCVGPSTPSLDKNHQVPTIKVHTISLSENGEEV
UniProt Q16620, sequence (whole entry, looked up): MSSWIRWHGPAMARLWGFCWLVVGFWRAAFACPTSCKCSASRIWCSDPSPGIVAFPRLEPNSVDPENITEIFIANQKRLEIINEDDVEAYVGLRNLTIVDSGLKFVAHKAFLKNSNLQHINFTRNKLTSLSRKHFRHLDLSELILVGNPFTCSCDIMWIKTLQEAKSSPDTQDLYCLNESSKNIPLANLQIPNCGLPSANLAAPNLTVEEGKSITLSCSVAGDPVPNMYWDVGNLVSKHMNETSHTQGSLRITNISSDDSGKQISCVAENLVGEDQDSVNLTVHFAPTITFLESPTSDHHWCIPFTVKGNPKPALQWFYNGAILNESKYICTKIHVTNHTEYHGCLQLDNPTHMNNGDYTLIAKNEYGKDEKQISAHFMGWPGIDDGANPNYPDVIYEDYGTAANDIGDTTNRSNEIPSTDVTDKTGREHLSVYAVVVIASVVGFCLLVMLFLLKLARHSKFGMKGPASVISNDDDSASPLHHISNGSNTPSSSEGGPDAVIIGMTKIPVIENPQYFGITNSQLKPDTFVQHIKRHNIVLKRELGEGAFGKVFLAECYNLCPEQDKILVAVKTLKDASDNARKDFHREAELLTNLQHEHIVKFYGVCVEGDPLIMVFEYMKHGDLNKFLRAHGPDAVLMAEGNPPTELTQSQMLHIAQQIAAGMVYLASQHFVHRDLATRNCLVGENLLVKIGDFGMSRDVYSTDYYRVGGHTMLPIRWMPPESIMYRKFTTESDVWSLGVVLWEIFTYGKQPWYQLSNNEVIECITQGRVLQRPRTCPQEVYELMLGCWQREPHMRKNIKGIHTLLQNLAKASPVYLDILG
UniProt Q13164, sequence (whole entry, looked up): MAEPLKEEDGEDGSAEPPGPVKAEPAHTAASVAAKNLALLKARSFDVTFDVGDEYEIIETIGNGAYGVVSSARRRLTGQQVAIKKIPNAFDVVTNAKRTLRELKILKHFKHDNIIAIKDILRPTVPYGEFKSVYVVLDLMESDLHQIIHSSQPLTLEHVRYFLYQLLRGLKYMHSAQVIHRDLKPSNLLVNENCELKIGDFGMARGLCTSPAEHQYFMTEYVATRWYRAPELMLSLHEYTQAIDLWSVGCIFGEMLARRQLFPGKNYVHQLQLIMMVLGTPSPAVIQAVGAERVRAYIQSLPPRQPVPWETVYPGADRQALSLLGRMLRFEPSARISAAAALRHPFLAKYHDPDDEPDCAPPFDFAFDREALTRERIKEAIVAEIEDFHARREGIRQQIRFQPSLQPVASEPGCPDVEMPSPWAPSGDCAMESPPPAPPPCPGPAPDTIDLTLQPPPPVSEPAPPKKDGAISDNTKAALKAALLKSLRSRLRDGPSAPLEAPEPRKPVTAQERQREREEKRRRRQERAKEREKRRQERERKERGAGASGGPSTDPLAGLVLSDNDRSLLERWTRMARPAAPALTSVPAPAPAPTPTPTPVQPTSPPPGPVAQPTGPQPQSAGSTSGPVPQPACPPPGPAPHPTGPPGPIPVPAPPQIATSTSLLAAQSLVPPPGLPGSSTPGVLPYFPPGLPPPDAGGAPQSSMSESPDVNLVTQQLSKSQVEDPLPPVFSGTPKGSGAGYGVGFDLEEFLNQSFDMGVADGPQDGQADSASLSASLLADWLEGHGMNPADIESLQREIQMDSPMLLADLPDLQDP
UniProt P18089, sequence (whole entry, looked up): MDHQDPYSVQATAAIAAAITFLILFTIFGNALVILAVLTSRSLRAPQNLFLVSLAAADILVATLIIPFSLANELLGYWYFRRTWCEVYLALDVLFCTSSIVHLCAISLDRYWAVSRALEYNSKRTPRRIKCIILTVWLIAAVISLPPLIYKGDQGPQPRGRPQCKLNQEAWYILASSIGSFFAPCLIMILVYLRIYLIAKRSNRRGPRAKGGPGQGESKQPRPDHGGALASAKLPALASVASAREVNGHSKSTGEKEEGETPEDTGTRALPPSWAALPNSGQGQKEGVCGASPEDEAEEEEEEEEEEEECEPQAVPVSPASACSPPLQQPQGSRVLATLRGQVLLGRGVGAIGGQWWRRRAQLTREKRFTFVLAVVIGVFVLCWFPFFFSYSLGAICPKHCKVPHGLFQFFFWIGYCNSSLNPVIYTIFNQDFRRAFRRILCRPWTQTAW
UniProt P13945, sequence (whole entry, looked up): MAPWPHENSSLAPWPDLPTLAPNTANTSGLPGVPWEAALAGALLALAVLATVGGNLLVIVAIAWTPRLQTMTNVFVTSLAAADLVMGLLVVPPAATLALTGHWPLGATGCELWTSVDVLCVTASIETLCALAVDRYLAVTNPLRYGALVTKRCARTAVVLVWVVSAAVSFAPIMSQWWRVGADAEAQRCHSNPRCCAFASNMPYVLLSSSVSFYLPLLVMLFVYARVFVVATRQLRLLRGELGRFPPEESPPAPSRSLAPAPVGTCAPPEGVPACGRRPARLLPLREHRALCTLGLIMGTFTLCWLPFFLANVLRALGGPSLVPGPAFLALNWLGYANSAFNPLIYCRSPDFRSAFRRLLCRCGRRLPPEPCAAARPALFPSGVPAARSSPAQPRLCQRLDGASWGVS
UniProt P21728, sequence (whole entry, looked up): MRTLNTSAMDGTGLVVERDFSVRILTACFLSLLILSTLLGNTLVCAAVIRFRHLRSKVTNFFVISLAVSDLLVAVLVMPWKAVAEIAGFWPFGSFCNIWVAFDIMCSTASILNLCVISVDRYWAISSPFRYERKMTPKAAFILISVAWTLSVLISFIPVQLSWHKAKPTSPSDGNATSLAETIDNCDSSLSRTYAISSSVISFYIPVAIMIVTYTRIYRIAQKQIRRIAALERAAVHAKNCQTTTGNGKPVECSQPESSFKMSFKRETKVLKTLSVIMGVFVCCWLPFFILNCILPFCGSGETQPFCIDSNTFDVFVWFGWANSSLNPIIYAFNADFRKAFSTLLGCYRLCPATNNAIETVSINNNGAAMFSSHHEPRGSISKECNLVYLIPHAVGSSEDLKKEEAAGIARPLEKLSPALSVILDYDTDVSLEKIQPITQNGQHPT
UniProt P14416, sequence (whole entry, looked up): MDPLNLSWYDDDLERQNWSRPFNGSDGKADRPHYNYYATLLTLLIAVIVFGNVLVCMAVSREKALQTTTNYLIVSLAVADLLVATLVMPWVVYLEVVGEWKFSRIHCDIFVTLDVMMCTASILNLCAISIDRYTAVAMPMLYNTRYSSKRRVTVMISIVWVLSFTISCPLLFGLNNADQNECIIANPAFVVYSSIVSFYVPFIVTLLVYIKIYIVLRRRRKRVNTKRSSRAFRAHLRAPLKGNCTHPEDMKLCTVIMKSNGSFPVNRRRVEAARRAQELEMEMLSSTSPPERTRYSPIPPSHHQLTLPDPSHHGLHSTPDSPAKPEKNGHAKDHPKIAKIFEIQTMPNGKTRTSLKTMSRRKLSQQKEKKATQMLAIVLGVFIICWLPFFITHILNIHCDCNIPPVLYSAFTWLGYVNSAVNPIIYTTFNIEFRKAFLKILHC
UniProt O43293, sequence (whole entry, looked up): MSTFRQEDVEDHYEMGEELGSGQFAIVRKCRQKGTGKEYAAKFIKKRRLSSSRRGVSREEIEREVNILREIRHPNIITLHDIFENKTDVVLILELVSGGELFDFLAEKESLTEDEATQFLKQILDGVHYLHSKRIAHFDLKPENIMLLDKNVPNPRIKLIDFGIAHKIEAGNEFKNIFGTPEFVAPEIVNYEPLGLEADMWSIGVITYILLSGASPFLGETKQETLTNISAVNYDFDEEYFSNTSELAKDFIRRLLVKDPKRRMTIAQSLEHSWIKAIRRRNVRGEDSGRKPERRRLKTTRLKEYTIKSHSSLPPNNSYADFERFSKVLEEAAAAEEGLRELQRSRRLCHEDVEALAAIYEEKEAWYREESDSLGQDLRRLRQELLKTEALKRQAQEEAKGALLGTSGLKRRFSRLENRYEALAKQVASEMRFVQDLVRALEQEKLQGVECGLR
UniProt P08173, sequence (whole entry, looked up): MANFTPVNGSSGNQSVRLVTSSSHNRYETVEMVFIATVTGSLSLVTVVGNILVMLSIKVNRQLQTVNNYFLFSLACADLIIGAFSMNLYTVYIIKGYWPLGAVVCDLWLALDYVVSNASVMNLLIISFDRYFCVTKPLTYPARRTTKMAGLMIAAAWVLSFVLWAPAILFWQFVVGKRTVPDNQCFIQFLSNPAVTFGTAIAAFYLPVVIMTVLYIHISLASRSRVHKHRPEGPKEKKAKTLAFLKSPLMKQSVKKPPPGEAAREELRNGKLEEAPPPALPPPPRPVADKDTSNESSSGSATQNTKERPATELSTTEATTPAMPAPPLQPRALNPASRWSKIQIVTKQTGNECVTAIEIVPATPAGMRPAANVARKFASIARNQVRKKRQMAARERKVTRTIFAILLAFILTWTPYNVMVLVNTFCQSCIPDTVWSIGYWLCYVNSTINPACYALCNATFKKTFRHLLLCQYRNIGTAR

Block 1
Cell line: mouse MPNST tumor cells
Method: high-content nuclear imaging
Refers to: cell number
Tested at: 10 µM
Time: 12 h
Notes: mean of 2 replicates
Baseline: plate mean
Reading: higher = more cells
Compound | nuclei count [z-score]
CC(C)n1nc(-c2cc3cc(O)ccc3[nH]2)c2c(N)ncnc21 | -2.56
O=C1Cc2cc(CCN3CCN(c4nsc5ccccc45)CC3)c(Cl)cc2N1 | -0.704
COc1ccc2c(-c3ccc(O)c(C)c3)ccnc2c1 | 1.92
Oc1ccc(-c2nc3cc(O)cc(Br)c3o2)cc1 | 3.27
c1ccc(-c2n[nH]c3c2oc2ccccc23)cc1 | -1.31
CC(CNS(=O)(=O)C(C)C)c1ccc(-c2ccc(C#N)cc2)cc1 (stereo not shown) | -1.07

Block 2
SMILES: O=C(NCc1ncc(C(F)(F)F)cc1Cl)c1ccc2c(c1)C1(CCS(=O)(=O)CC1)[C@H](C1CC1)N2S(=O)(=O)c1ccc(F)cc1
Effect on: ligand displacement
Tested at: 10 µM
target | inhibition
Alpha-2B adrenergic receptor (ADRA2B, Homo sapiens, UniProt P18089) | 13.5%
D(2) dopamine receptor (DRD2, Homo sapiens, UniProt P14416) | -35.7%
D(1A) dopamine receptor (DRD1, Homo sapiens, UniProt P21728) | -38.2%
Alpha-1A adrenergic receptor (ADRA1A, Homo sapiens, UniProt P35348) | -0.32%
Muscarinic acetylcholine receptor M4 (CHRM4, Homo sapiens, UniProt P08173) | -13%
Histamine H3 receptor (HRH3, Homo sapiens, UniProt Q9Y5N1) | -8.26%
Histamine H2 receptor (HRH2, Homo sapiens, UniProt P25021) | 14.6%
Beta-3 adrenergic receptor (ADRB3, Homo sapiens, UniProt P13945) | -2.87%
D(3) dopamine receptor (DRD3, Homo sapiens, UniProt P35462) | 9.45%

Block 3
Compound: Cc1ccc(NC(=O)c2ccnc(C(F)(F)F)c2)cc1-c1cc(OCCO)nc(N2CCOCC2)c1
Tested at: 1 µM
target | test | remaining binding [%]
Mitogen-activated protein kinase 7 (MAPK7, Homo sapiens, UniProt Q13164) | binding | 100
Death-associated protein kinase 3 (DAPK3, Homo sapiens, UniProt O43293) | binding | 100
BDNF/NT-3 growth factors receptor (NTRK2, Homo sapiens, UniProt Q16620) | binding, competition with immobilised ligand | 100
Non-receptor tyrosine-protein kinase TYK2, JH1 (TYK2, Homo sapiens, UniProt P29597) | cell-free assay, competition with immobilised ligand | 97
MAP/microtubule affinity-regulating kinase 4 (MARK4, Homo sapiens, UniProt Q96L34) | binding | 100
Discoidin domain-containing receptor 2 (DDR2, Homo sapiens, UniProt Q16832) | binding, competition with immobilised ligand | 16

Single results of other studies
SMILES | cell line | setting | measurement | result
O=C(O)CCCN1CCC(O[C@@H](c2ccc(Cl)cc2)c2ccccn2)CC1 | A-375 | 100 µM, 60 h | viability | 76.4%

A few entries again (block 3):
target | test | remaining binding [%]
Death-associated protein kinase 3 (DAPK3, Homo sapiens, UniProt O43293) | binding | 100
Discoidin domain-containing receptor 2 (DDR2, Homo sapiens, UniProt Q16832) | binding, competition with immobilised ligand | 16
Mitogen-activated protein kinase 7 (MAPK7, Homo sapiens, UniProt Q13164) | binding | 100
